# Measured values pooled from the literature.
# Every numbered part comes from another study and shows a few of its results, in no order. Substitutions count along the parent as printed.

# Series 1 — method: RNA Bind-n-Seq; molecule type: RNA; sample: in vitro; tested at: 365 nM; baseline: no-protein control; reading: higher = stronger binding
# Target: RNA binding protein fox-1 homolog 2, RRM domain, GST-SBP tag (RBFOX2, Homo sapiens, UniProt O43251-10, residues 100-194)
# Notes: natural RNA segment, single round, ends assumed
# Constant ends, left off below: GGGAGUUCUACAGUCCGACGAUC … UGGAAUUCUCGGGUGCCAA
# Construct (chain): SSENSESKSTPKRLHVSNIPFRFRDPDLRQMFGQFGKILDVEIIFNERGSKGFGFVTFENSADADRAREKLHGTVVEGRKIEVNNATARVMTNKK
Sequence,RBNS enrichment (R)
AACAACCUCUAUAUUUUCACUGUAUGUUAUGGCAGAAUUUUAGUCACGUCCAAAACAAAAGAUUAUUCCAGAAGAUACCUCAUCCUAUGCCUGAAAGGCUCCACAGCAUG,3.46
CGGGGCGGGCAGCUCCUUGUCUCUCAGCUUUGACUGACUUGUCCGCAUUGGGGAUUUUUGUUCUCAGCUCCCAGGCCGCACUGAACACAGUGUUGCUGCCUUCAGUUUGG,0.318
CUCUUUUGUGGAUGGCUUCAAGUAACAUCUAUUUCCAUUGAUCCUAGGUUCUUACUGACUGCUUUCUCCAGCUGUUCACAGCAGAUGCUUGGAUUUUAUGCAGUAGGCUU,0.419
UUCAGAGAAAAAUCUUAAAAGCAGACCAUCCUUUUUUGCAUGCUCUAUUCUAAGUAGAAUGUUCAAUGUAACUGACUAAAAUUGCAUGUUAAAGAUAUUUAGGUUUUUUU,10.7
CAGACAAGGUGGAGACCCAGCAGCAGUAAAUACCUAGCAAUUCCAAGGACUUGGUUUCAUCAGUUACCAGGAAGUGGGGGAACCAUGGAGGGAGAACGCUAUAUUGGGUU,0.406
AAAUUAUUUCCUUUCAAGGGCCCUUUAAUAUCUAUCAAGCUCCCUCCCCUAACAAAAUGGGCUGUCCCUGCCCAACAAGUCUGAAAUAGACCUUAAAACUGUGCUGCCUU,0.64
CCGGUUGGCCGGCUGGCCGGUCCACCCCGUCCCGGCCCCGCGCGUGCCCCCAGCGUGGGGCUAACGGGCGCCUUGUCUGUGUAUUUCUAUUUUGCAGCAGUACCAUCCCA,0.312
GCCAUCUGGAAUGCAAGGUGAGACUGGCCAGCCGGUCUGACUCUGAUCCCAGGUGACUGGCUCUUGUGAAGAGUCUUAAGUGUCCUGUGGUACCGUAGAGUGGAAAUGAU,0.543

# Series 2 — target: CCND2, cyclin fold, Cln2 fusion (human); method: yeast growth competition, sequencing; sample: yeast; notes: weak parent motif; baseline: not given; reading: higher = stronger binding
# Parent: RBL2 docking peptide (human); STTRRRLFVENDS; partner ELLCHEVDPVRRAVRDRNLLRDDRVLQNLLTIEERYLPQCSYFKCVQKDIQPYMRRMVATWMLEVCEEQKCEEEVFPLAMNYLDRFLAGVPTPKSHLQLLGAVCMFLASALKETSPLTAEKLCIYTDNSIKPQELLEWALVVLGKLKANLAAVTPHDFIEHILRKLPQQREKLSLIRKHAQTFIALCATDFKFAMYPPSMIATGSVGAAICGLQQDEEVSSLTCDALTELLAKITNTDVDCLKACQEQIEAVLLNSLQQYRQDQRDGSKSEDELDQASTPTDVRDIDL
Variant,normalised enrichment score
R5W,0.0553
N11T,0.185
R4W,-0.305
L7Y,0.224
S1R,0.82
V9F,0.434
V9W,0.644

# Series 3 — method: protein binding microarray; molecule type: double-stranded DNA, one strand shown; sample: in vitro; tested at: not given; baseline: not given; reading: higher = stronger binding
# Target: Histone acetyltransferase KAT6A, winged helix 2, GST fusion (KAT6A, Homo sapiens, UniProt Q92794, residues 85-181)
# Notes: 8-mer, flanks averaged, mean of 2 arrays, mostly near background
# Construct (chain): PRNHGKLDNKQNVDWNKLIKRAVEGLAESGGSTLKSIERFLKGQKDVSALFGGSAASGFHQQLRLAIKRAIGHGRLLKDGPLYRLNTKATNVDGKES
Sequence,E-score
AGGGTTTA,0.0953
GACAAGCC,0.0423
ATTGTTCC,0.00095
AGACGTGG,-0.121
ATTCATGG,-0.0854
ATAACGTC,-0.115
AGCTGACT,0.0799
GATACCCA,0.0692
AAGTCCTA,-0.202
CAGCAGGG,-0.0316
CTTCACCC,0.152
TCCATGGA,0.00135
ACGTTCAA,-0.129

# Mixed results
Molecule,target,test,test system,setting,how to read,endpoint,value
"PhoQ, residues 284 288 289 292 302 303 SCEHLI","PhoP, residues 12 14 15 18 19 YHFSH (Escherichia coli, UniProt P23836)","Sort-seq, measured: YFP reporter",E. coli,"PhoQ-PhoP variant library, together with: 10 µM Mg2+","baseline: high Mg2+ state, higher = stronger signaling",fold induction,24.8
